# Measurements gathered from unrelated publications.
# Every numbered part comes from another study and shows a few of its results, in no order. Positions count from the first letter of the parent shown.

# Block 1
# Target: UBE2G2 UBC core domain (UniProt P60604)
# Method: yeast two-hybrid
# Sample: yeast
# Setting: mostly zero background
# Reference: not given
# Reading: higher = stronger interaction
# B1: MID1 RING domain (UniProt O15344); chain METLESELTCPICLELFEDPLLLPCAHSLCFNCAHRILVSHCATNESVESITAFQCPTCRHVITLSQRGL
# B2: ZNF598 RING domain (UniProt Q86UK7); chain AAAPERGGGSCVLCCGDLEATALGRCDHPVCYRCSTKMRVLCEQRYCAVCREELRQVVFGK
# B3: PHF21A RING domain (UniProt Q96BD5); chain SPTSTDGDIHEDFCSVCRKSGQLLMCDTCSRVYHLDCLDPPLKTIPKGMWICPRCQDQMLKKEEAIPW
# B4: RNF25 RING domain (UniProt Q96BH1); chain LTDNNIPHGQCVICLYGFQEKEAFTKTPCYHYFHCHCLARYIQHMEQELKAQGQEQEQERQHATTKQKAVGVQCPVCREPLVYDLASL
# B5: TRIM72 RING domain (UniProt Q6ZMU5); chain APGLLHQELSCPLCLQLFDAPVTAECGHSFCRACLGRVAGEPAADGTVLCPCCQAPTRPQALST
# B6: CUL9 RING domain (UniProt Q8IWT3); chain AQAVPVRPDHCPVCVSPLGCDDDLPSLCCMHYCCKSCWNEYLTTRIEQNLVLNCTCPIADCPAQPTGAFIR
# B7: RC3H2 RING domain (UniProt Q9HBD1); chain QAAQWTEFLSCPICYNEFDENVHKPISLGCSHTVCKTCLNKLHRKACPFDQTAINTDIDVL
# B8: TRIM63 RING domain (UniProt Q969Q1); chain PMENLEKQLICPICLEMFTKPVVILPCQHNLCRKCANDIFQAANPYWTSRGSSVSMSGGRFRCPTCRHEVIMDRHGV
# B9: UHRF2 RING domain (UniProt Q96PU4); chain CGGDPEKKCHSCSCRVCGGKHEPNMQLLCDECNVAYHIYCLNPPLDKVPEEEYWYCPSCKTDSSEVVKAGER
# Construct (chain): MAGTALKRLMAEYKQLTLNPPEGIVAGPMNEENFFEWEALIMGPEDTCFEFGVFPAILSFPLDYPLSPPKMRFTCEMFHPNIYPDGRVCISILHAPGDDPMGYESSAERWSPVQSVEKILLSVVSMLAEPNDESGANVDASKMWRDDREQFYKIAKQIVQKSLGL
Sequence,lacZ reporter activity
QLRRLQEERTCKVCMDKEVSVVFIPCGHLVVCQECAPSLRKCPICRGIIKGTVRTF (BIRC2 RING domain (UniProt Q13490)),9460
DAIPSLSECQCGICMEILVEPVTLPCNHTLCKPCFQSTVEKASLCCPFCRRRVSSWTRYH (RNF168 RING domain (UniProt Q8IYW5)),7430
B1 (MID1 RING domain),0
B2 (ZNF598 RING domain),0
YWAMDSTFELCKICAESNKDVKIEPCGHLLCSCCLAAWQHSDSQTCPFCRCEIKGWEAVS (CBLC RING domain (UniProt Q9ULV8)),0
B3 (PHF21A RING domain),0
RLTMMWEEVTCPICLDPFVEPVSIECGHSFCQECISQVGKGGGSVCPVCRQRFLLKNLRP (TRIM21 RING domain (UniProt P19474)),0
QLQDIKEQTMCPVCLDRLKNMIFLCGHGTCQLCGDRMSECPICRKAIERRILLY (MIB1 RING domain (UniProt Q86YT6)),11800
B4 (RNF25 RING domain),0
B5 (TRIM72 RING domain),0
B6 (CUL9 RING domain),0
B7 (RC3H2 RING domain),0
B8 (TRIM63 RING domain),0
B9 (UHRF2 RING domain),0
QHHELTSLFECPVCFDYVLPPILQCQAGHLVCNQCRQKLSCCPTCRGALTPSIRNL (SIAH2 RING domain (UniProt O43255)),0

# Block 2
# Target: Phosphate system positive regulatory protein PHO4, full length, GST-tagged (PHO4, Saccharomyces cerevisiae, UniProt P07270, residues 1-312)
# Method: competition protein-binding microarray
# Molecule type: double-stranded DNA, one strand shown
# Sample: in vitro
# Tested at: 2 µM
# Setting: whole 60-bp probe, lowest competitor level
# Added: Cbf1 competitor, 0.05 µM
# Reading: higher = stronger binding
# Constant ends, left off below: … GTCTTGATTCGCTTGACGCTGCTG
# Target sequence (chain): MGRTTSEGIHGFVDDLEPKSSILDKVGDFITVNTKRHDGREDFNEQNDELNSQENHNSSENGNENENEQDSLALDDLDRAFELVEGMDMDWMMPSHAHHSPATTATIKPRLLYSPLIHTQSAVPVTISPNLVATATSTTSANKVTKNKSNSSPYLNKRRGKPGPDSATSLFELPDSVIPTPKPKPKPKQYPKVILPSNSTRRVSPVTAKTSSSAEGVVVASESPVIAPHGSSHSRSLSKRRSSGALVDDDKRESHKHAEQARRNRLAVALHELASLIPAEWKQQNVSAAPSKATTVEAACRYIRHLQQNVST
Strand,fluorescence intensity [a.u.]
CGAGATTCATACAATGGCGTGCAAACAAAATGATTA,6900
CATACCCAACCTTGACGCGTGGGTGAAGATATTTGT,10200
TGGATAAAATTTAAGCGCGTGAAATTGGAATCTAAA,6100
CCAACAAACCTTTCACACGTGGTCGGATTCAAGTTC,16900
CTTCTGTAAATTTGTCACCTCACTTGACGCGCCCCG,3780
AAAGCGGTAATTTGTCACAGAACTTCACATATCTAT,3200
TTCATTTCCCAGAGCAGCATGACAGCTTGGTTTCTT,5650
GCTATACGACAGCTGCATGATCAAGTGCCGCTTGTC,4600
ATTGCTGCTTGCAGCTGCGTGCAAATTTCCATAATC,7440
CTTGTCATCTCTATTCACATGGGGTGGTATCTGTAT,10000
CAGCCTCCATTCGGTAGCGTGCTGTATGTCAACAAA,6980
TCATTATTGAAAGTGAACGTGATTGTGAACCGCTTG,10800
GACAAATTAGATAATGAAAAAGATATGGGGTGGAAG,3410
AAAAGCCAACGCCATCACGTGCAAAGAAATATCTGC,16200
TGCGCAACAACTTGAAGAGTGGGTGTATGTCTAGAA,4940
GTCTTGTCTCATTGGCCTGTGGGTGTCCCCACTTCA,4580
AAGACGAAATTCTTGTTCGTGCCGATGTTGCCCTTT,5580

# Block 3
# Target: ABI1, truncated, D143A, DHFR fusion (Arabidopsis thaliana)
# Method: DHFR PCA, deep sequencing
# Sample: yeast
# Setting: methotrexate growth selection, single substitutions
# Added: (+)-ABA 4.8 µM
# Reference: wild-type fitted maximum
# Reading: higher = stronger binding
# Parent: PYL1, truncated, DHFR fusion (Arabidopsis thaliana); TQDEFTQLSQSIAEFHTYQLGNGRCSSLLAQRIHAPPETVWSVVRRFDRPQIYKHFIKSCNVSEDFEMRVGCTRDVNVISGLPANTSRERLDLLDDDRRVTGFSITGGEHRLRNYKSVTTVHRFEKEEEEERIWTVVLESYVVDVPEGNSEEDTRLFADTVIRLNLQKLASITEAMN
Variant,relative binding score [%]
E125H,80.8
E151P,81.3
H110V,3.83
V145K,-5.68
E67A,64.9
R49E,63.6
Q167L,71.4
L112C,-4.86
I172Q,13.2
G108L,-2.66
R88L,60.4
R132I,73.3
F5K,53.4
I12K,6.09
W41C,17
T101V,66.1

# Block 4
# Target: Histone acetyltransferase KAT6A, both winged helices, GST fusion (KAT6A, Homo sapiens, UniProt Q92794, residues 1-181)
# Method: protein binding microarray
# Molecule type: double-stranded DNA, one strand shown
# Sample: in vitro
# Tested at: not given
# Setting: 8-mer, flanks averaged, mean of 2 arrays, mostly near background
# Reference: not given
# Reading: higher = stronger binding
# Target sequence (chain): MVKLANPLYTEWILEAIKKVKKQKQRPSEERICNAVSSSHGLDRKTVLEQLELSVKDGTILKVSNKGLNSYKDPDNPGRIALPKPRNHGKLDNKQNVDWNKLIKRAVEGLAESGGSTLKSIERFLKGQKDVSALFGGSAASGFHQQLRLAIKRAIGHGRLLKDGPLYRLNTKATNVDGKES
Strand,E-score
CCATATTC,-0.0388
AGCCCTCG,-0.0878
ACAACTGT,-0.00231
CTATGGAA,-0.163
CTGGGTTA,-0.203
AGGCGGAT,0.111
TCGTCAGA,-0.0803
CAAACTTC,-0.0893
CAGGAGCG,0.207
ACGGCTAA,0.218
GTAACGTA,0.0212
CTATCTTA,-0.135
GACGGGGC,0.134
GACATAGA,-0.116
CGATTGAC,0.0982
AAGTTAGC,-0.0863
ATTACTCG,0.0285
CGACAGGC,0.0193
AATTTCGT,-0.0204
ACTGGATA,-0.173
GGCCTCAA,-0.0759
ACTGACAG,-0.00768
CGAGGACC,0.0735
CTATGGAG,-0.16

# Block 5
# Target: JUND, bZIP domain (human)
# Method: DHFR protein complementation
# Sample: yeast
# Setting: single substitutions, most at no-binding floor
# Reference: wild-type JUN-FOS pair
# Reading: higher = stronger binding
# Parent: JUN, bZIP domain (human); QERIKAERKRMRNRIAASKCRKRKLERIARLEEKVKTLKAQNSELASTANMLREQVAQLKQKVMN
Variant,binding fitness
L31Y,-1.43 natural log
V56R,-1.29 natural log
E54F,-1.2 natural log
L31R,-1.49 natural log
R53D,-1.5 natural log
Q41S,-1.46 natural log
L38E,-1.46 natural log
L52G,-1.45 natural log
E32Y,-1.35 natural log
L59V,-1.49 natural log
E32G,-1.3 natural log
L52D,-1.38 natural log
R53V,-1.23 natural log
V56H,-1.35 natural log
A46G,-1.21 natural log
T48P,-1.44 natural log
L45F,-1.33 natural log
N42A,-1.26 natural log
L38D,-1.39 natural log
L38R,-1.45 natural log
L45P,-1.47 natural log

# Block 6
# Target: CCNF, cyclin fold, Cln2 fusion (human)
# Method: yeast growth competition, sequencing
# Sample: yeast
# Setting: strong parent motif
# Reference: not given
# Reading: higher = stronger binding
# Parent: PKMYT1 docking peptide (human); SFEPRNLLSLFED
Variant,normalised enrichment score
SFEPRNLLSNFED [L10N],0.141
SFVPRNLLSLFED [E3V],2.76
SFEPRKLLSLFED [N6K],1.35
SFEPRNLCSLFED [L8C],-0.0812
SFEPRNQLSLFED [L7Q],-1.38
SFEPRNLLSLFEM [D13M],2.1
SKEPRNLLSLFED [F2K],0.932
SFEPRNLLRLFED [S9R],0.917
SFEPRNLLSLFDD [E12D],0.347
SFEPRNLLSLEED [F11E],-1.93
SFEPRNLLSLMED [F11M],-0.335
SFYPRNLLSLFED [E3Y],2.46
SFEPQNLLSLFED [R5Q],0.0379
SFEHRNLLSLFED [P4H],-0.666
SFEPRNLLSEFED [L10E],0.722
SFEPRNLLSLIED [F11I],-0.108
SFEPRNLASLFED [L8A],0.333
SFEPRNLRSLFED [L8R],0.345
SFEPRYLLSLFED [N6Y],-0.917
SGEPRNLLSLFED [F2G],0.327

# Excerpt of the above (block 5):
Variant,binding fitness
L38E,-1.46 natural log
L52G,-1.45 natural log
E32Y,-1.35 natural log
L59V,-1.49 natural log
E32G,-1.3 natural log
L52D,-1.38 natural log
R53V,-1.23 natural log
V56H,-1.35 natural log
A46G,-1.21 natural log
T48P,-1.44 natural log
L45F,-1.33 natural log
N42A,-1.26 natural log
L38D,-1.39 natural log
